Experimental data pooled from the literature.
Parts stem from different laboratories: compare values within a part only.

Study 1
Target: Histone acetyltransferase KAT6A, winged helix 1, GST fusion (KAT6A, Homo sapiens, UniProt Q92794, residues 1-85)
Method: protein binding microarray
Molecule type: double-stranded DNA, one strand shown
Sample: in vitro
Tested at: not given
Setting: 8-mer, flanks averaged, mean of 2 arrays, mostly near background
Reference: not given
Reading: higher = stronger binding
Measurement: E-score
Construct (chain): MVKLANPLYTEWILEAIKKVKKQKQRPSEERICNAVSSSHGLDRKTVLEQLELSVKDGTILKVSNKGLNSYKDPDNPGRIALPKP
Sequence = CAGCGCCA; result = 0.188
Sequence = GCCTCGGA; result = 0.167
Sequence = GCATGGGC; result = -0.0294
Sequence = CTCCCAGC; result = -0.13
Sequence = GGCTTAAC; result = -0.0343
Sequence = CCTAATGA; result = -0.148
Sequence = CACCAGTA; result = -0.165
Sequence = TAGAGCGA; result = 0.00799
Sequence = CCAGAATA; result = -0.0968
Sequence = CACGGGGC; result = 0.204
Sequence = GAGATGCA; result = -0.1
Sequence = AGGGAACT; result = -0.173
Sequence = GTCCAGAA; result = -0.167
Sequence = TAAACGTA; result = -0.0381
Sequence = CCGCTAAG; result = 0.354
Sequence = CAGGTCGA; result = -0.224
Sequence = CGGAGGTA; result = -0.0499
Sequence = GGCATGTA; result = 0.0558
Sequence = GTGCAATA; result = -0.0985
Sequence = AAGACGTC; result = -0.0207
Sequence = CAGGCCAG; result = -0.0818
Sequence = ATATCTGG; result = -0.235
Sequence = CGGTCACG; result = 0.305
Sequence = TAGGGTAA; result = -0.158
Sequence = CACTGCAG; result = -0.184

Study 2
Target: Hepatocyte nuclear factor 3-alpha (Foxa1, Mus musculus, UniProt P35582, residues 1-468, full length assumed)
Chain of UniProt P35582 (whole entry, looked up): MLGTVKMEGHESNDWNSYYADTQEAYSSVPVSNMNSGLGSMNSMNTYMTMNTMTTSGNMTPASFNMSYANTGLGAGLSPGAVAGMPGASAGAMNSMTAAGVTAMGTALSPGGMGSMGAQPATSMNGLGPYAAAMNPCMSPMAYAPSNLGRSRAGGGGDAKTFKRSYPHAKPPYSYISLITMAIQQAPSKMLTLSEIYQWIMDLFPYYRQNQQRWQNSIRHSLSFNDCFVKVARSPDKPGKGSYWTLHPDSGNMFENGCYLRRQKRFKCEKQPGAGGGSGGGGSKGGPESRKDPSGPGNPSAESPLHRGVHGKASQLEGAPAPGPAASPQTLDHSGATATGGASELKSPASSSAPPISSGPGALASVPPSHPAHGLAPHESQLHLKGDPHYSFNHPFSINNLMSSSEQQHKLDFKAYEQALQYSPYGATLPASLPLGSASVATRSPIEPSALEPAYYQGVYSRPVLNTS
Method: EMSA with sequencing
Molecule type: double-stranded DNA, one strand shown
Sample: in vitro
Tested at: 10 and 20 nM
Setting: whole designed probe, mean of two concentrations, ends assumed
Reference: negative control set to 0
Reading: higher = stronger binding
Measurement: normalised bound fraction
Constant ends, left off below: GTGAGCGGTGCCCATTGATGGGGAAC … TTTCACTGGGATCGTGGGGAC
Sequence = CCAAAGTATCACAGGGAGAGATGGGCCTCTTGGGGCAGCAGCAGCAGCTGAAGCAGGCTGACTCACAGCTGCTTCTAATATGCTAGGCTTTGTGTAAACAGGCTTTATGACACAAGTGGGCTGACTACAGTGCAATTGGAGTGTGGCATCTGAGTCACTGTGAGGCTCTAGCTGGCTTCTTCCAGCCCTGGCC; result = 0.31 ratio
Sequence = GTAACTACAGTCTCAACCTGCCACATTTTATCATAGGATCAAATCCAGTAATAAAATAATGAGTCTTGGAGGGCAGGCCAGACAGCTCATCTGAGATTACTGAAAGCATCCAGCATATCTTATGAGACACGTGGTGCCAAACAGATGGGTGGCCGCCCTCCCTCATCTGCCTGCCTGAGGCTTGCCCAACTGC; result = -0.0587 ratio
Sequence = TTAAAACACACCACCTACATATTTCACATGAGTGAACCAGGATGAATGAATGGATGTTTGCAAGCACCCCAGGGTCCAGGAGGTGAAGTTATGCAAACATCAGTTGTTGTTATATCACCCTCTGCCCTTGGCTAAGGGCCAATATCAACAAGTTCTCTTTTTCCCATCTGCCTTAGAGTTTTCCATGAAGATT; result = 0.335 ratio
Sequence = AGGTGAATTGGCTGCTTCCATCCTGGCTTGGAACTTCAGACATAGAAGCCTTGGGACTTTCTCAGGACTTTCTCCTGACTCATGCCAGATTCAGCAAACAAGCATCTCTGTGGATCACGTGACCTTAGCCAGGGATGTTGGTGAAACTGTGTGTTGGTCTAGGTACCTAGCCCATGCTAGGTGCTCATCGAAT; result = 0.0404 ratio
Sequence = TTAAGTGAAATCAACTGAAACCTTACTTTTTTTTGCTTTTATACCTAAAATAGAGGATTTAGATATATTTTCTAGGAACGATGATGTAATATGTAATCTAGGAATTTTGGTAATGTTTGAAATATTTTCTCATGGGGACACACCACTAAATTTGTCACCTCTAAAACAGTACTTAGGTTAAATGCTTTTTAAA; result = -0.00975 ratio
Sequence = CTGAGGTCAGGAGGCCGGCATGCGTGACCCTTTGTCTCTGGGAGTCCAGATTTCCTAATGCAGGGCTCTTTCTAACACAGAAAGCAAGGTTGAGTAAATACATGAGCTCATGCTCTGTTGGCACGTAGGGCATTGCTGTGTTGATTCACTCATGGAAACAGGAATGCTTCTGTACACCCTGTGCTTGTAACGT; result = 0.26 ratio
Sequence = AAGTGAAGATGATAAATATGATGGTTTGGGAATTTTTGCCTGGCTGCCATATGCACGAGGAACTAACCAGAGTCTGAAACAGAGAAACCAATGTAATCTAATAACAGAGTTTTTAATTTATATTGTCAATAAATATTAATCAGATATTTTATCAGTTCCTAAAAATGTTGTTTTAATATTTTTCCTACTTTGG; result = 0.149 ratio
Sequence = ATCTTCCCCCTCTTCCTTGCCCCACCAGCTCACCTTCCCGGGTTATTTGCACAAAGGAAAATAAATAAAGCCGGCATTCGTTAACCCTCTTCACGCGCATACTGCTGTTTGCTCTGGATGAATCATGGTCCTTTGGCGAGGCGTGGCTCCGGGAGAGCAAAGCACCGTGTCAGGGCCATGATCCGGGGTGGCC; result = 0.365 ratio

Study 3
Target: Prothrombin, mature alpha-thrombin (F2, Homo sapiens, UniProt P00734)
Method: aptamer microarray, sandwich
Molecule type: DNA with 2'F-ANA
Sample: in vitro
Tested at: 200 nM
Setting: whole 15-mer aptamer, many near background
With: Cy3 exosite-II aptamer, 400 nM
Reading: higher = stronger binding
Measurement: mean fluorescence intensity
Sequence: GGTTGGTGTGGTTGG
Modification = 2'F-ANA at 2 3 4 5 7 9 12 13 15; result = 122 a.u.
Modification = 2'F-ANA at 3 4 5 6 8 9 10 11 14 15; result = 49 a.u.
Modification = 2'F-ANA at 1 4 6 7 9 10 12 15; result = 63 a.u.
Modification = 2'F-ANA at 1 3 4 8 9 10 12 13 14 15; result = 59.2 a.u.
Modification = 2'F-ANA at 1 2 3 6 12 14 15; result = 117 a.u.
Modification = 2'F-ANA at 1 2 7 9 10 11 12 13 14 15; result = 51.4 a.u.
Modification = 2'F-ANA at 1 2 3 5 7 9 10 15; result = 45.9 a.u.
Modification = 2'F-ANA at 1 4 6 7 8 9 11 14 15; result = 110 a.u.
Modification = 2'F-ANA at 1 9 10 11 13; result = 51.8 a.u.
Modification = 2'F-ANA at 3 15; result = 1220 a.u.
Modification = 2'F-ANA at 1 2 3 4 6 7 8 9 11 12 13 15; result = 208 a.u.
Modification = 2'F-ANA at 6 7 8 9 13 15; result = 347 a.u.
Modification = 2'F-ANA at 2 7 8 10 13 15; result = 123 a.u.
Modification = 2'F-ANA at 1 2 6 11 14; result = 50.8 a.u.
Modification = 2'F-ANA at 2 5 6 7 8 9 11 12 14; result = 49 a.u.
Modification = 2'F-ANA at 2 4 8 11 13 15; result = 210 a.u.
Modification = 2'F-ANA at 1 2 3 5 7 9 10 12 13; result = 61.2 a.u.

Study 4
Target: Sal-like protein 4, full length isoform B (SALL4, Homo sapiens, UniProt Q9UJQ4-2, residues 1-616)
Method: universal PBM
Molecule type: double-stranded DNA, one strand shown
Sample: in vitro
Tested at: not given
Setting: 8-mer, flanks averaged, mean of replicates
Reading: higher = stronger binding
Measurement: E-score
Target sequence (chain): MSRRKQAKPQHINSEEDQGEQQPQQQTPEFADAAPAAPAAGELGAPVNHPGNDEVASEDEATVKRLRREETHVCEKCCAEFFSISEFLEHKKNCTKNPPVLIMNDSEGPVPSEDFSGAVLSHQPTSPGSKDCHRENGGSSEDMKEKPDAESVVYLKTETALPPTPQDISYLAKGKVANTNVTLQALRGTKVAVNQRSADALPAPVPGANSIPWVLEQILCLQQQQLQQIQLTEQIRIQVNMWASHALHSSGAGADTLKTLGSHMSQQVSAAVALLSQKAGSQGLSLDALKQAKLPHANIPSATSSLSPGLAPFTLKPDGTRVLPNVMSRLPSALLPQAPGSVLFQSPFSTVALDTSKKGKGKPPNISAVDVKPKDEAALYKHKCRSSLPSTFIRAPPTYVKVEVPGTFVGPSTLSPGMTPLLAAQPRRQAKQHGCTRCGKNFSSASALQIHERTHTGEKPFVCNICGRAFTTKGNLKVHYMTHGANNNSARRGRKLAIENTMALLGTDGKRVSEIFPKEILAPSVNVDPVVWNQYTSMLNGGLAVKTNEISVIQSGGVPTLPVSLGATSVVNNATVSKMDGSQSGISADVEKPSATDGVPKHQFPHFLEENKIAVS
Sequence = GTTCTAGA; result = 0.0247
Sequence = ATCGTCGA; result = -0.0927
Sequence = CGTATCGA; result = 0.0333
Sequence = CCCGAAGC; result = -0.188
Sequence = ACGATGCT; result = -0.173
Sequence = CAGAGGCC; result = -0.201
Sequence = AGGCCCAT; result = -0.271
Sequence = CAGTCCGA; result = -0.191
Sequence = GATCTTGC; result = 0.0888
Sequence = AGAACTCA; result = 0.0766
Sequence = CGAACTTC; result = -0.0341
Sequence = GGATAGAA; result = 0.0473
Sequence = AAGCTCCC; result = -0.303
Sequence = AAGTCAGG; result = -0.14
Sequence = GCAGTCGC; result = -0.201
Sequence = GGACCACA; result = -0.155
Sequence = TCAATACA; result = 0.251
Sequence = CGAGTTTC; result = -0.111
Sequence = CCTCTATA; result = 0.13

Study 5
Target: RNA binding protein fox-1 homolog 2, RRM domain, GST-SBP tag (RBFOX2, Homo sapiens, UniProt O43251-10, residues 100-194)
Method: RNA Bind-n-Seq
Molecule type: RNA
Sample: in vitro
Tested at: 365 nM
Setting: natural RNA segment, single round, ends assumed
Reference: no-protein control
Reading: higher = stronger binding
Measurement: RBNS enrichment (R)
Constant ends, left off below: GGGAGUUCUACAGUCCGACGAUC … UGGAAUUCUCGGGUGCCAA
Target sequence (chain): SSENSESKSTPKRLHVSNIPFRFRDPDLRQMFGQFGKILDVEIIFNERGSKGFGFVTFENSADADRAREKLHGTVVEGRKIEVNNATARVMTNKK
Sequence = AUAGGUAUGUAAUGUGGAACCGACACUGGGGAGAUCUGAAGGAAGAAGGCAUGAGGCACUCUCUGAUGGCUUGCUAGUCAAAACUGGAAGGAUUUUCCUUAGGACAGGUG; result = 2.65
Sequence = CUUGUAAGUUUGUCUUUACUCCUAAUUGCUAAAUUAACUGAAACCCUUCCUGUCUAGGGAGAAUUGCUGCUAGUAAGGUCAGUUUGCAAUGUUCAGCUUUAGAUAUGUGU; result = 0.644
Sequence = GCUCCUGCACUUACUUGCUUAUUUGACAACGUUUCAGCGACUCCGUUGGCCACUCCGAGAGGUGGGCCAGUCUGUGGAUCAGAGAUGCACCACCAAGCCAAGGGAACCUG; result = 0.674
Sequence = CCUGUUAAAUGUCAACCUAGACCUGGACCUGGGUGGGAGGAAACUGUAGCCUGAGUGUCCACAGGGACACACGUGAGCCACAGGGCUAGAAGCACAGGCCCGUCACCCCA; result = 0.3
Sequence = CACCACCUAGCCAUAGUCUCAAACCUGUGGGGAAGGAGGUUUUCUCCCUGCCCGGGAAGAGGACAGAUAACUGAUUUCCGUUCUUUUGACUGUGUUUUAAAAUUCUCUUU; result = 0.206
Sequence = UUCUGAUAACGCAGAGAUUUUUUGUUUUUUUUUGGUAGCUCAGUAGAAGUGCGUCCUGUUUUCGCCUUACUUUACUCAGAGCUAGUUAGUGCUUCCUUAGUUUCCUAGCA; result = 2.74
Sequence = AUUUUUUUUGUUGUUCUUUUGUGAUUAAGGAUAUACAUUUAGUAGUCUUUGUUAUUAAAGGAACCUGCUGAUAAGUACAAGUGUGACCAUCUCAUUCAAAUGUUUGUUGU; result = 0.391
Sequence = UAUUUUUUGUAAACUAAUAAUUCAUUUGGUGCUGGUCUAUUGAUUGGGGGCCUACUUCUUCAUGGAAGAAUUACUUUUAUUCUCAAACUACAGAAUAAUGUGCUAAGUAG; result = 0.74
Sequence = CAGCCUUCCACAUCGUGUCAGUGUUGGCUGCCCAGGUUGGAAGCGAAGACUUGAUUGAUAGCAUGGUUUCAAGAGAGAAGUGGGGCCACACACAAAAUCACCAAUGAUUC; result = 3.19
Sequence = UAAUUCUCGAAGUGUGGAACAAAGUGACCGAGACAGCAUCCUCAGUCAUCUUUGUCUCCUUCCCUGGGAUGCAGAUACCGAAGUUGCUUUUCCAACUUUCGCCUCCGCUA; result = 0.203
Sequence = GCGUUCCAGAUAAAAAUGAGACUUAGAAGACAGACUGGUCUAAUAUGCUCACUGGUCAUCACAUUCAGCUUAUUCUUACGUGCCAGUGAGGCCCUAAGGUCUCAGUGCAU; result = 0.35
Sequence = CUUAUAAAGUUGGGGGAGCAGCUGGGUUUGUACCUAUAACCUCAGCCUUUGAGAGAGAUUGAGAAAGGAGGCCCGCUUUGAGGCUAGCUGGGCUACGCGGUGAGGCCCUG; result = 0.704

For quick reference, copied from above (study 4):
Sequence = CGTATCGA; result = 0.0333
Sequence = CCCGAAGC; result = -0.188
Sequence = ACGATGCT; result = -0.173
Sequence = CAGAGGCC; result = -0.201
Sequence = AGGCCCAT; result = -0.271
Sequence = CAGTCCGA; result = -0.191
Sequence = GATCTTGC; result = 0.0888
Sequence = AGAACTCA; result = 0.0766
Sequence = CGAACTTC; result = -0.0341
Sequence = GGATAGAA; result = 0.0473
Sequence = AAGCTCCC; result = -0.303
Sequence = AAGTCAGG; result = -0.14
